Measurements of several laboratories.
Numbered parts are unrelated; each lists some results of a single study.

Block 1
Target: Ras GTPase-activating protein-binding protein 1, C-terminal RGG region (G3BP1, Homo sapiens, UniProt Q13283)
UniProt Q13283, sequence (whole entry, looked up): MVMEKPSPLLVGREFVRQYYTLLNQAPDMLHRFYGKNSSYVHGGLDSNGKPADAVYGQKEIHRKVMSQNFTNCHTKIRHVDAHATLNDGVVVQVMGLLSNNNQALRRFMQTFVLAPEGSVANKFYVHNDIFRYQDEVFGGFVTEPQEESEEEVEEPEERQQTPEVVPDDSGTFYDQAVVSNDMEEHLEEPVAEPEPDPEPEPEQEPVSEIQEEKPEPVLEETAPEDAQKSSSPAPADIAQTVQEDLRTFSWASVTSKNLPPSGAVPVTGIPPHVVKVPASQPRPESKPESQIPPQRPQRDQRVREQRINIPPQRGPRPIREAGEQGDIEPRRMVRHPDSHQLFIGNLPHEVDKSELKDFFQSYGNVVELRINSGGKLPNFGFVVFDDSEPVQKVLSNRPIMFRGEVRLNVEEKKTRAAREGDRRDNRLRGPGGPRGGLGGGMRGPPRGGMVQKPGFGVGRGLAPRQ
Method: RNA Bind-n-Seq
Form: RNA
Medium: in vitro
Tested at: 1 µM
Notes: whole 134-nt RNA, ends assumed
Together with: 150 mM KCl
Relative to: input library
Reading: higher = stronger binding
| Oligonucleotide | log2 enrichment |
| --- | --- |
| GGGAGUUCUACAGUCCGACGAUCCUCAAGUCCUGUGCUACACAUCGUAUGUACCGAAUCGGGGUUGGGUUGGGUUGGAAAGUAUUAUGUUACGCCGUUCGGAUCUGCACUUCCUGGAAUUCUCGGGUGUCAAGG | 0.0917 |
| GGGAGUUCUACAGUCCGACGAUCACCAUGCAGGUGGGCAUCUUUGGGAAGUGGGGCAAGGGGGGGAUAGGGAGGGGGGUAACACUUUGGGAACAGGUGGUCCCAGGUAAAUUCUGGAAUUCUCGGGUGUCAAGG | -1.23 |
| GGGAGUUCUACAGUCCGACGAUCCUCAAGUCCUGUGCUACACAUCGUAUGUACCGAAUCGGUUUUUGGAGGUUUGGAAAGUAUUAUGUUACGCCGUUCGGAUCUGCACUUCCAUGGAAUUCUCGGGUGUCAAGG | -1.11 |
| GGGAGUUCUACAGUCCGACGAUCAGUCCUGUGCUACACAUCGUAUGUACCGAAUCGGGGUGGGGUUUUUGGGGUUUGGGGAAAGUAUUAUGUUACGCCGUUCGGAUCUGCACUUGGAAUUCUCGGGUGUCAAGG | 0.803 |

Block 2
Target: Histone acetyltransferase KAT6A, winged helix 2, GST fusion (KAT6A, Homo sapiens, UniProt Q92794, residues 85-181)
Method: protein binding microarray
Form: double-stranded DNA, one strand shown
Medium: in vitro
Tested at: not given
Notes: 8-mer, flanks averaged, mean of 2 arrays, mostly near background
Relative to: not given
Reading: higher = stronger binding
Residues (chain): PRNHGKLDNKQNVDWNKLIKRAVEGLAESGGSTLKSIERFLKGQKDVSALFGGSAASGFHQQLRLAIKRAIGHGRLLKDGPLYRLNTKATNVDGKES
| Oligonucleotide | E-score |
| --- | --- |
| GAAGTGAA | 0.0611 |
| TAGGCTCA | -0.0968 |
| GTCCTAAA | -0.0332 |
| AAGAATGC | 0.0165 |

Block 3
Target: Interferon regulatory factor 7, full length, phosphomimetic (IRF7, Homo sapiens, UniProt Q92985, residues 1-503, S471D/S472D/S475D/S476D/S477D/S483D/S484D/S487D)
UniProt Q92985, sequence (whole entry, unmodified, looked up): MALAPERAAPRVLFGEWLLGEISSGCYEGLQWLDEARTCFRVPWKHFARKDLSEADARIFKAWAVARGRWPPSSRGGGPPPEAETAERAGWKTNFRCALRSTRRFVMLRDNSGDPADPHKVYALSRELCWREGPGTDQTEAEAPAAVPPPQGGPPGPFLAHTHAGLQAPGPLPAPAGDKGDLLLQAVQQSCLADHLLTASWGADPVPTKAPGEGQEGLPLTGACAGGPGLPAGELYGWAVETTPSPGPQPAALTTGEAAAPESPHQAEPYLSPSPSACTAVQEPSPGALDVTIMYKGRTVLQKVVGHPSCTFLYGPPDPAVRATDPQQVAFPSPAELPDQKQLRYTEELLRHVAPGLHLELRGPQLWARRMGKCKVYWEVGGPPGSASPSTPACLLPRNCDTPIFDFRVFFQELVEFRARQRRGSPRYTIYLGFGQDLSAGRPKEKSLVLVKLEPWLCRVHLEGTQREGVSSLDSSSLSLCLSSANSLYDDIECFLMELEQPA
Method: protein-binding microarray
Form: double-stranded DNA, one strand shown
Medium: in vitro
Tested at: 2200 nM top
Notes: 60-bp whole probe
Together with: salmon DNA 0.4 mg/ml
Relative to: random background probes
Reading: higher = stronger binding
Shared flanks, not repeated: GCCTAGCAC … GTCTTGATTCGCTTGACGCTGCTG
| Oligonucleotide | fitted relative affinity [z-score] |
| --- | --- |
| CAGGTTCTCTTTTATTTTTTGTGCTAG | 1.84 |
| ATTGCTTTCTCTTTCACTGCGTGCTAG | 6.78 |
| TTATGACTGGGTCTCGGTTAGTGCTAG | 0.373 |
| GACGATTTCGGGACTGGGGACGTGCTA | 1.28 |
| TCAGGTATCCTTCTCCTTTAGTGCTAG | 1.83 |

Mixed results
| Molecule | target | assay | system | conditions | how to read | endpoint | value |
| --- | --- | --- | --- | --- | --- | --- | --- |
| PhoQ, residues 284 288 289 292 302 303 AGCYAI | PhoP, residues 12 14 15 18 19 LYHSL (Escherichia coli, UniProt P23836) | Sort-seq, item: YFP reporter | E. coli | PhoQ-PhoP variant library, together with: 10 µM Mg2+ | relative to: high Mg2+ state, higher = stronger signaling | fold induction | 11.3 |
